Published values pooled from the literature.
Each line is one published result; not all experiments were run side by side. ± gives the spread as reported.

| Compound | assay | test system | conditions | scale | quantity | result |
| --- | --- | --- | --- | --- | --- | --- |
| CC[C@@](N)(c1cnc(C(F)(F)F)c(Cl)c1)c1c2ccn(C3CC3)c(=O)c2nn1C |  | rat Sprague-Dawley male, plasma | intravenous, 1 mg/kg |  | CL | 1.23 ± 0.156 mL/min/kg |
| CCc1nc(C(N)=O)c(Nc2ccc(N3CCC(N4CCN(C)CC4)CC3)c(OC)c2)nc1NC1CCOCC1 |  | Japanese patients, plasma | oral, 120 mg, cycle 1 day 28, multiple doses, median | baseline: single dose | accumulation ratio (AUC) | 7.97 |
| C[C@H]1[C@H](NC(=O)/C(=N\OC(C)(C)C(=O)O)c2csc(N)n2)C(=O)N1S(=O)(=O)O | starch gel membrane permeability | Gram-negative envelope surrogate | 200 µM, 20 min, pH 7.4 |  | amount permeated | 1.8 nmol |
| O=C1CCC(N2Cc3cc(CO)c(F)cc3C2=O)C(=O)N1 (stereo not drawn) |  | cynomolgus monkey, male | oral, 0.3 mg/kg parent drug, 1 h |  | plasma concentration | 0.83 ± 0.26 ng/mL |
| Cc1nc2ccc(OCc3ccc(C(F)(F)F)cc3)cc2[nH]1 |  | male Balb/c mice, lungs | oral, 10 mg/kg, 72 h | baseline: tissue over plasma | tissue/plasma ratio | 6.6 ± 2.9 |
| CCCCOc1nc(N)c2c(n1)N(Cc1cccc(CN3CCCC3)c1)CC(=O)N2 |  | people with HIV | together with: vorinostat and cobicistat |  | tolerability | not toxic |
| COc1c(O)cc(C(=O)O)cc1OS(=O)(=O)O |  | human plasma | median |  | plasma concentration | 222 nM |
| CNCc1ccc(-c2[nH]c3cc(F)cc4c3c2CCNC4=O)cc1 | measured: dyspnea | human patients | oral, 600 mg twice daily, grade 1 |  | patients with adverse event | 7.7% |
| CNC(=O)c1cc(Oc2ccc(NC(=O)Nc3cc(C(C)(C)C)nn3-c3ccc4ncccc4c3)c(F)c2)ccn1 | measured: worst grade 2 | human | oral, dose not given, cycles 1 and 2, Medium AUC(0-4 h) subgroup |  | patients with musculoskeletal disorder AE | 14% |
| CNC(=O)c1ccc(-c2cnc3ncc(Cc4ccc5ncccc5c4)n3n2)cc1F | measured: Ascites | gastric cancer patients | oral, 600 mg twice daily, expansion cohort, grade 3-4 |  | patients with adverse event | 11% |
| Cc1cc(Nc2cc3ncccc3c(N[C@@H]3C[C@H]4CC[C@@H](C3)N4CCC#N)n2)n[nH]1 |  | human, plasma | 30 mg single dose, mean |  | AUC(0-24) | 4.28 ng·h/mL |
| COc1cccc(-c2n[nH]c(SCc3ccccn3)n2)c1OC |  | Sprague-Dawley rat, female, plasma | oral gavage, 30 mg/kg |  | Cmax | 45400 ng/mL |
| N#Cc1ccc2c(c1)[C@H]1CCCN(C(=O)c3ccc4[nH]cnc4c3)[C@H]1C2 |  | human, female | 80 mg, day 7 |  | DHEA-S level | 8.6 µmol/L |
| [H]/N=C(/N)N[C@H]1[C@H](O)[C@@H](O)[C@H](O[C@@H]2O[C@@H](C)[C@](O)(C=O)[C@H]2O[C@@H]2O[C@@H](CO)[C@H](O)[C@@H](O)[C@@H]2NC)[C@@H](N/C(N)=N\[H])[C@@H]1O | starch gel membrane permeability | Gram-negative envelope surrogate | 200 µM, 20 min, pH 7.4 |  | amount permeated | 0.27 nmol |
| C[C@@H](N)C1CCN(S(=O)(=O)c2cccc3cnccc23)CC1 |  | healthy volunteers, fasted, plasma | oral, 75 mg |  | t1/2 | 48.6 min |
| C=CC(=O)N1CCC(c2ccc(C(N)=O)c(-c3ccc(Oc4ccccc4)cc3)n2)CC1 |  | relapsed/refractory mantle cell lymphoma patients | oral, 150 mg once daily, part, CTCAE v4.03 |  | TEAE rate | 50% |
| Cc1cc(-c2nccc3c2ccn3CC(=O)Nc2ccc(-c3cnccn3)cn2)ccn1 |  | human | MAD part, 15 mg once daily |  | subjects with skin abrasion TEAEs | 0% |
| O=C(O)c1ccc(OS(=O)(=O)O)c(O)c1 |  | human plasma | median |  | plasma concentration | 105 nM |
| CN1C(=O)[C@@H](NC(=O)c2nnc(Cc3ccccc3)[nH]2)COc2cccnc21 | phase I multiple ascending dose | human, male and female | oral, 600 mg, 14 days |  | participants with any serious TEAE | 0% |

| Compound | assay | test system | conditions | scale | quantity | result |
| --- | --- | --- | --- | --- | --- | --- |
| N#Cc1cc(NC(=O)[C@H]2c3ccccc3C(=O)N(CC(F)(F)F)[C@@H]2c2cccnc2)ccc1F |  | humans, both sexes, all cohorts | oral, dose not given, grade 1, interim |  | number of unlikely related AEs | 75 |
| CC(C)=CCc1cc2c(cc1O)O[C@H](c1ccc(O)cc1)CC2=O |  | liver microsomes | seven species incl. human |  | species difference in phase I CLint | ~12.1 fold |
| CCN1/C(=C/C(C)=O)Sc2ccc(F)cc21 |  | cynomolgus monkey | oral, 100 mg/kg, 4 h post-dose |  | diastolic blood pressure | 77 ± 2 mmHg |
| CCC[C@@H]1C[C@@H](C(=O)N[C@@H]([C@H]2O[C@H](SC)[C@H](O)[C@@H](O)[C@H]2O)[C@@H](C)O)N(C)C1 | starch gel membrane permeability | Gram-negative envelope surrogate | 200 µM, 20 min, pH 7.4 |  | amount permeated | 0.7 nmol |
| N#CCNC(=O)c1ccc(-c2ccnc(Nc3ccc(N4CCOCC4)cc3)n2)cc1 |  | healthy volunteers, plasma | oral, dose not given, together with: ritonavir multiple-dose | baseline: with ritonavir over alone | AUCtau geometric mean ratio | 114% |
| Cn1c(=O)[nH]c(=O)c2[nH]cnc21 |  | human, both sexes, cerebrospinal fluid |  |  | samples above LOQ | 0% |
| O=C(O)CCC(=O)O.[2H]C([2H])([2H])Oc1cc(C)c2[nH]ccc2c1CN1CC[C@@H](C2CC2)C[C@H]1c1ccc(C(=O)O)cc1 |  | healthy Chinese subjects | 200 mg, single ascending dose |  | TEAE urine leukocyte positive | 0% |
| Cc1cc(C)c(CNC(=O)c2cc(Cl)c3c(c2C)O[C@@](C)([C@H]2CC[C@H](N(C)C)CC2)O3)c(=O)[nH]1 |  | human relapsed/refractory NHL | oral, 200 mg once daily, onset after cycle 1 day 1 |  | GGT increased grade ≥3 | 4.2% |
| OCCOCc1ccc(-c2noc(-c3ccc(OCC[18F])c(C(F)(F)F)c3)n2)cc1 |  | Macaca mulatta, liver | female phantom OLINDA/EXM |  | absorbed radiation dose | 0.16 mSv/MBq |
| CC(C)(C(=O)N1CCOc2c(C#N)cncc2C1)C(F)F | measured: ventricular extrasystoles | healthy humans, both sexes | oral, 40 mg single dose |  | subjects with TEAE | 16.7% |
| OC[C@H]1O[C@@H](c2ccc(F)c(Cc3cc4ccccc4s3)c2)[C@H](O)[C@@H](O)[C@@H]1O |  | Japanese patients, type 1 diabetes | oral, 25 mg/day, onset day 12 | baseline: patients | hypoglycaemia-related adverse event | 1% |
| Cc1nc(-c2ccc(OCC(C)C)c(C#N)c2)sc1C(=O)O |  | healthy Chinese subjects, fasted | oral, 40 mg single dose |  | subjects discontinued due to AEs | 0% |
| Cc1ccc([C@@H]2O[C@H](CO)[C@@H](O)[C@H](O)[C@H]2O)cc1Cc1ccc(-c2ccc(F)cc2)s1 |  | Japanese type 2 diabetes patients | 100 mg, day 18, 24 h urine collection | baseline: baseline | urinary calcium excretion change | 4.34 mg |
| O=C(COc1ccc(Cl)cc1)NC12CC(c3nnc([C@H]4C[C@@H](OC(F)(F)F)C4)o3)(C1)C2 | measured: Nausea | human | oral, dose not given, 14 days |  | adverse event incidence | 2.9% |
| CCO[C@H]1CCN(Cc2c(OC)cc(C)c3[nH]ccc23)[C@H](c2ccc(C(=O)O)cc2)C1 |  | human moderate hepatic impairment, plasma | oral, 200 mg single dose, mean |  | unbound Cmax | 1150 ng/mL |
| CCN1CCN(Cc2ccc(NC(=O)c3ccc(C)c(NC(=O)c4cncc(-c5cccs5)c4)c3)cc2C(F)(F)F)CC1 | LC-MS/MS | C57BL/6 mouse, plasma | intraperitoneal, 15 mg/kg single dose, 0.5 h |  | mean plasma concentration | 538 ng/mL |
| O=C(O)/C=C/c1cccc(O)c1 |  | human plasma | median |  | plasma concentration | 1560 nM |
| Cc1c2oc3c(C)ccc(C(=O)N[C@@H]4C(=O)N[C@H](C(C)C)C(=O)N5CCC[C@H]5C(=O)N(C)CC(=O)N(C)[C@@H](C(C)C)C(=O)O[C@@H]4C)c3nc-2c(C(=O)N[C@@H]2C(=O)N[C@H](C(C)C)C(=O)N3CCC[C@H]3C(=O)N(C)CC(=O)N(C)[C@@H](C(C)C)C(=O)O[C@@H]2C)c(N)c1=O |  | children with cancer, plasma | dose not given, 5 min |  | minimum plasma concentration | 64.7 µg/L |
| O=C(c1cccnc1-c1ccncc1)N1CCC(O)(Cc2ccccc2)CC1 |  | healthy Japanese adults, plasma | oral, 100 mg twice daily, day 7 |  | AUClast | 224 ng·h/mL |

| Compound | assay | test system | conditions | scale | quantity | result |
| --- | --- | --- | --- | --- | --- | --- |
| COc1ccc(C=CC(=O)O)cc1OS(=O)(=O)O |  | human plasma | mean |  | plasma concentration | 900 nM |
| N=C(N)NCCNC(=O)C1(Nc2ccccc2)CCN(Cc2ccccc2)CC1 |  | Sprague-Dawley rats (female), plasma | intravenous, 2.5 mg/kg |  | clearance | 10 mL/min |
| CCc1cc(C(=O)NC)c2nccc(N3CCc4c(cc(Cn5ccnc5)cc4-c4cn(C)nc4C(F)(F)F)C3=O)c2c1 |  | Sprague Dawley rats | oral, 100 mg/kg once daily, 7 days | baseline: vehicle | serum HDL change | 2.5% |
| O=C(O)C=Cc1ccc(O)c(OS(=O)(=O)O)c1 |  | human plasma | mean |  | plasma concentration | 416 nM |
| CC(=O)O[C@H]1C(=O)[C@@]2(C)[C@H]([C@H](OC(=O)c3ccccc3)[C@]3(O)C[C@H](OC(=O)[C@H](O)[C@@H](NC(=O)c4ccccc4)c4ccccc4)C(C)=C1C3(C)C)[C@]1(OC(C)=O)CO[C@@H]1C[C@@H]2O | measured: neutropenia | patients with advanced solid tumours | intravenous, dose not given, grade 1 and 2, possibly related to drug |  | adverse event incidence | 20% |
| COc1ccc(C(=O)O)c(O)c1 |  | human plasma | median |  | plasma concentration | 132 nM |
| NC[C@H]1O[C@H](O[C@H]2[C@H](O)[C@@H](O[C@H]3O[C@H](CO)[C@@H](O)[C@H](N)[C@H]3O)[C@H](N)C[C@@H]2N)[C@H](N)C[C@@H]1O | starch gel membrane permeability | Gram-negative envelope surrogate | 200 µM, 30 min, pH 7.4 |  | amount permeated | 0.61 nmol |
| CN1CCN(c2cccc3c2CCN(C(=O)/C=C/c2c(-n4cnnn4)ccc(Cl)c2F)[C@@H]3C(=O)Nc2ccc(C(=O)O)cc2)C(=O)C1 |  | healthy human subjects | intravenous infusion, 20 mg/h, 5 days |  | subjects with infusion site pain | 0% |
| COc1ccc2c(=O)n(C)c(-c3ccccc3)nc2c1 |  | Sprague-Dawley rat, male, small intestine | oral, 30 mg/kg, 0.25 h, mean |  | tissue-to-plasma ratio | 25400 |
| C=CC(=O)Nc1cc(Nc2nccc(-c3cn(C)c4ccccc34)n2)c(OC)cc1N(C)CCN(C)C | storage stability | human plasma | 5 h, -80 °C, high QC level |  | recovery | 93.4% |
| C[C@H]1Oc2cc(cnc2N)-c2c(nn(C)c2C#N)CN(C)C(=O)c2ccc(F)cc21 |  | human patients, plasma | oral, dose not given, cycle 2 day 1, geometric mean, together with: avelumab |  | AUCtau, dose-normalized | 59 ng·h/mL/mg |
| CCc1cc(OC)c2nccc(N3CCc4c(cc(Cn5ccnc5)cc4-c4cn(C)nc4C(F)(F)F)C3=O)c2c1 |  | Sprague Dawley rat, male, plasma | oral, 50 mg/kg |  | AUC extrapolated fraction | 0.9% |
| CCOc1c([C@H](C)n2nc(C)c3c(N)ncnc32)cc(Cl)c(F)c1[C@@H]1CNC(=O)C1 | measured: QTcF above 500 ms | previously treated B-cell malignancy | oral, 15 mg once daily, baseline QTcF ≤450 ms |  | ECG observations | 0% |
| Cc1nc2cccc(OCC(C)(C)C(=O)NC(C)C)c2c(N)c1C(=O)O |  | Sprague-Dawley rat, plasma | oral, 30 mg/kg, day 7 | baseline: female over male | AUC(0-last) ratio | 1.24 ± 0.16 |
| CCc1cc2ncc(CN3CCN(c4ccc(C(=O)NC)nc4)CC3)cc2[nH]c1=O |  | female rat, blood | oral, 50 mg/kg/day, 4 weeks | baseline: vehicle control | Neutrophils count ratio | 0.53 |
| COc1c(O)cccc1OS(=O)(=O)O |  | human plasma | mean |  | plasma concentration | 2820 nM |
| O=C(NC[C@H]1CN(c2ccc(N3CCOCC3=O)cc2)C(=O)O1)c1ccc(Cl)s1 | Phoenix NLME, model A | human, atrial fibrillation patients, plasma | oral, dose not given |  | typical volume of distribution | 45.5 L |
| COc1ccc2nc([S+]([O-])Cc3ncc(CO)c(OC)c3C)[nH]c2c1 (stereo not drawn) |  | human, dried plasma spots | 4 h, together with: fluvoxamine and voriconazole | baseline: inhibited over baseline | R/S enantiomer ratio fold change | 0.34 |
| C[C@H]1CN(C(=O)CC#N)[C@]12CCN(c1ncnc3[nH]ccc13)C2 |  | healthy human | oral, dose not given |  | subjects with Fatigue | 3.1% |

Repeated from above:
| Compound | assay | test system | conditions | scale | quantity | result |
| --- | --- | --- | --- | --- | --- | --- |
| C[C@H]1[C@H](NC(=O)/C(=N\OC(C)(C)C(=O)O)c2csc(N)n2)C(=O)N1S(=O)(=O)O | starch gel membrane permeability | Gram-negative envelope surrogate | 200 µM, 20 min, pH 7.4 |  | amount permeated | 1.8 nmol |
| O=C1CCC(N2Cc3cc(CO)c(F)cc3C2=O)C(=O)N1 (stereo not drawn) |  | cynomolgus monkey, male | oral, 0.3 mg/kg parent drug, 1 h |  | plasma concentration | 0.83 ± 0.26 ng/mL |
| Cc1nc2ccc(OCc3ccc(C(F)(F)F)cc3)cc2[nH]1 |  | male Balb/c mice, lungs | oral, 10 mg/kg, 72 h | baseline: tissue over plasma | tissue/plasma ratio | 6.6 ± 2.9 |
| CCCCOc1nc(N)c2c(n1)N(Cc1cccc(CN3CCCC3)c1)CC(=O)N2 |  | people with HIV | together with: vorinostat and cobicistat |  | tolerability | not toxic |
| COc1c(O)cc(C(=O)O)cc1OS(=O)(=O)O |  | human plasma | median |  | plasma concentration | 222 nM |
